Experimental data from different studies.
Organism: Staphylococcus aureus

For `CC[C@H]1OC(=O)[C@H](C)[C@@H](O[C@H]2C[C@@](C)(OC)[C@@H](O)[C@H](C)O2)[C@H](C)[C@@H](O[C@@H]2O[C@H](C)C[C@H](N(C)C)[C@H]2O)[C@](C)(O)C[C@@H](C)C(=O)[C@H](C)[C@@H](O)[C@]1(C)O`, the MIC was 4 µg/mL (broth microdilution; BNCC 186335).
With `CCn1cc(C(=O)O)c(=O)c2cc(F)c(N3CCNCC3)cc21` the MIC was 1 µg/mL (broth microdilution; ATCC 43300; 18 h).
`CN(C)c1ccc2nc3ccc(=[N+](C)C)cc-3sc2c1` has an MIC of 64 µM (ATCC 43300, resistant; 18 h, 37 °C, LED light 10 min, 1.57 mW).
`[H]/N=C(/N)N[C@H]1[C@H](O)[C@@H](O)[C@H](O[C@@H]2O[C@@H](C)[C@](O)(C=O)[C@H]2O[C@@H]2O[C@@H](CO)[C@H](O)[C@@H](O)[C@@H]2NC)[C@@H](N/C(N)=N\[H])[C@@H]1O` has an MIC of 1 µg/mL (CVCC546; alone).
With `CC1(C)S[C@@H]2[C@H](NC(=O)[C@H](N)c3ccc(O)cc3)C(=O)N2[C@H]1C(=O)O` the MIC was 0.5 µg/mL (broth microdilution; BNCC 186335).
The MIC of `CN(C)[C@@H]1C(O)=C(C(N)=O)C(=O)[C@@]2(O)C(O)=C3C(=O)c4c(O)cccc4[C@@](C)(O)[C@H]3C[C@@H]12` is reported as no more than 0.1 µM (MRSA 1).
`CNC(C)C1CCC(N)C(OC2C(N)CC(N)C(OC3OCC(C)(O)C(NC)C3O)C2O)O1` (stereo not shown) gave an MIC of 2.5 µM (clinical isolate S.A11, RPMI with FBS; 24 h, 37 °C).
`O=[N+]([O-])c1ccc2[nH]c(CNCC34CC5CC(CC(C5)C3)C4)nc2c1` gave an MIC of greater than 128 µg/mL (ATCC 29213).
`COc1cccc(OC)c1C(=O)N[C@@H]1C(=O)N2[C@@H]1SC(C)(C)[C@@H]2C(=O)O` has an MIC of greater than 100 µM (MRSA 2).
The MIC of `CN[C@H](CC(C)C)C(=O)N[C@H]1C(=O)N[C@@H](CC(N)=O)C(=O)N[C@H]2C(=O)N[C@H]3C(=O)N[C@H](C(=O)N[C@H](C(=O)O)c4cc(O)cc(O)c4-c4cc3ccc4O)[C@H](O)c3ccc(c(Cl)c3)Oc3cc2cc(c3O[C@@H]2O[C@H](CO)[C@@H](O)[C@H](O)[C@H]2O[C@H]2C[C@](C)(N)[C@H](O)[C@H](C)O2)Oc2ccc(cc2Cl)[C@H]1O` is reported as 0.25 µg/mL (broth microdilution; MRSA USA300, cation-adjusted Mueller-Hinton broth; 20 to 24 h, 37 °C, 0.002% polysorbate 80).
`CC12CC3(C)CC(C(=O)O)(C1)CC(C(=O)O)(C2)C3` gave an MIC of greater than 128 µg/mL.
For `CO/N=C(\C(=O)N[C@@H]1C(=O)N2C(C(=O)O)=C(COC(C)=O)CS[C@H]12)c1csc(N)n1`, the MIC was 4 µg/mL (broth microdilution; ATCC 43300; 18 h).
`NC[C@@H]1O[C@H](O[C@H]2[C@@H](O)[C@H](O[C@@H]3[C@@H](O)[C@H](N)C[C@H](N)[C@H]3O[C@H]3O[C@H](CN)[C@@H](O)[C@H](O)[C@H]3N)O[C@@H]2CO)[C@H](N)[C@@H](O)[C@@H]1O` gave an MIC of 20 µg/mL (HG003 wild type).
The MIC of `CC[C@H]1OC(=O)[C@H](C)[C@@H](O[C@H]2C[C@@](C)(OC)[C@@H](O)[C@H](C)O2)[C@H](C)[C@@H](O[C@@H]2O[C@H](C)C[C@H](N(C)C)[C@H]2O)[C@](C)(O)C[C@@H](C)C(=O)[C@H](C)[C@@H](O)[C@]1(C)O` is reported as 18.8 µM (MRSA 2).
The MIC of `CCn1cc(C(=O)O)c(=O)c2cc(F)c(N3CCNCC3)cc21` is reported as 2 µM (broth microdilution; MRSA NCTC 12493).
`NCCCC[C@H](NC(=O)[C@H](Cc1ccccc1)NC(=O)[C@H](CCC(N)=O)NC(=O)[C@H](Cc1ccccc1)NC(=O)[C@H](CCC(N)=O)NC(=O)[C@@H](N)Cc1ccccc1)C(N)=O` has an MIC of greater than 2000 µM (broth microdilution, optical density; ATCC 25923).
`NC[C@H]1O[C@H](O[C@H]2[C@H](O)[C@@H](O[C@H]3O[C@H](CO)[C@@H](O)[C@H](N)[C@H]3O)[C@H](N)C[C@@H]2N)[C@H](N)C[C@@H]1O` gave an MIC of 6.25 µM (147 MRSA clinical isolate).
The MIC of `COc1ccc2nc(NC(=O)c3cc(=O)c4ccccc4o3)sc2c1` is reported as greater than 128 µg/mL.
For `NC[C@H]1O[C@H](O[C@H]2[C@H](O)[C@@H](O[C@H]3O[C@H](CO)[C@@H](O)[C@H](N)[C@H]3O)[C@H](N)C[C@@H]2N)[C@H](N)C[C@@H]1O`, the MIC was 6.25 µM (MRSA 1).
`O=C(CCCN1CCC(O)(c2ccc(Br)cc2)CC1)c1ccc(F)cc1` has an MIC of greater than 128 µg/mL.
With `CC1(C)S[C@@H]2[C@H](NC(=O)[C@H](N)c3ccc(O)cc3)C(=O)N2[C@H]1C(=O)O` the MIC was 16 µg/mL (broth microdilution; MRSA).
The MIC of `CN(C)c1ccc(O)c2c1C[C@H]1C[C@H]3[C@H](N(C)C)C(O)=C(C(N)=O)C(=O)[C@@]3(O)C(O)=C1C2=O` is reported as 0.063 µg/mL (broth microdilution CLSI; ATCC 29213).
`CC[C@@H](C)[C@H]1O[C@@H](c2c(O)c(-c3ccccc3)cn(O)c2=O)[C@H](C)C[C@@H]1C` has an MIC of greater than 20 µg/mL (ATCC 29213).
`C/C=C(\C)c1cc(O)c(C)c(OC(=O)c2c(C)cc(O)c(Cl)c2O)c1` has an MIC of 16 µg/mL (broth microdilution; 718306).
`CC1(C)S[C@@H]2[C@H](NC(=O)[C@H](N)c3ccccc3)C(=O)N2[C@H]1C(=O)O` has an MIC of 2 µg/mL (ATCC 29213; 16 h).
The MIC of `C=CC1(C)CC(OC(=O)CSc2ccc(N)cc2)C2(C)C(C)CCC3(CCC(=O)C32)C(C)C1O` (stereo not shown) is reported as no more than 0.06 µg/mL.
`CN[C@H](CC(C)C)C(=O)N[C@H]1C(=O)N[C@@H](CC(N)=O)C(=O)N[C@H]2C(=O)N[C@H]3C(=O)N[C@H](C(=O)N[C@H](C(=O)O)c4cc(O)cc(O)c4-c4cc3ccc4O)[C@H](O)c3ccc(c(Cl)c3)Oc3cc2cc(c3O[C@@H]2O[C@H](CO)[C@@H](O)[C@H](O)[C@H]2O[C@H]2C[C@](C)(N)[C@H](O)[C@H](C)O2)Oc2ccc(cc2Cl)[C@H]1O` has an MIC of 1 µg/mL (ATCC 29213; 16 h).
`CN[C@H](CC(C)C)C(=O)N[C@H]1C(=O)N[C@@H](CC(N)=O)C(=O)N[C@H]2C(=O)N[C@H]3C(=O)N[C@H](C(=O)N[C@H](C(=O)O)c4cc(O)cc(O)c4-c4cc3ccc4O)[C@H](O)c3ccc(c(Cl)c3)Oc3cc2cc(c3O[C@@H]2O[C@H](CO)[C@@H](O)[C@H](O)[C@H]2O[C@H]2C[C@](C)(N)[C@H](O)[C@H](C)O2)Oc2ccc(cc2Cl)[C@H]1O` gave an MIC of 2.5 µM (clinical isolate S.A02, RPMI with FBS; 24 h, 37 °C).
The MIC of `C[C@H]1COC2=C1C(=O)C(=O)c1c2ccc2c1CCCC2(C)C` is reported as 125 µM (GDMCC 1.122; 48 h).
`CN(C)[C@@H]1C(O)=C(C(N)=O)C(=O)[C@@]2(O)C(O)=C3C(=O)c4c(O)cccc4[C@@](C)(O)[C@H]3C[C@@H]12` gave an MIC of 0.1 µM (147 MRSA clinical isolate).
`CN[C@H](CC(C)C)C(=O)N[C@H]1C(=O)N[C@@H](CC(N)=O)C(=O)N[C@H]2C(=O)N[C@H]3C(=O)N[C@H](C(=O)N[C@H](C(=O)O)c4cc(O)cc(O)c4-c4cc3ccc4O)[C@H](O)c3ccc(c(Cl)c3)Oc3cc2cc(c3O[C@@H]2O[C@H](CO)[C@@H](O)[C@H](O)[C@H]2O[C@H]2C[C@](C)(N)[C@H](O)[C@H](C)O2)Oc2ccc(cc2Cl)[C@H]1O` has an MIC of 1 µg/mL (broth microdilution; ATCC 29213, LB medium; no added Zn2+).
`C[C@H](N)C(=O)N[C@H](C(=O)N[C@@H](CS)C(=O)N[C@@H](Cc1ccc(O)cc1)C(=O)N[C@@H](CS)C(=O)N[C@@H](CCCNC(=N)N)C(=O)N[C@H](C(=O)NCC(=O)N[C@@H](CCCNC(=N)N)C(=O)O)[C@@H](C)O)[C@@H](C)O` gave an MIC of 50 µM (broth turbidity; USA300).
The MIC of `C[C@@H](O)[C@H]1C(=O)N2C(C(=O)O)=C(S[C@@H]3CN[C@H](C(=O)N(C)C)C3)[C@H](C)[C@H]12` is reported as 0.5 µg/mL (broth microdilution; ATCC 43300 MRSA).
`CCN(CC)/C(N)=N\c1ccc(NC(=O)c2ccc(C(=O)Nc3ccc(/N=C(\N)N(CC)CC)cc3)cc2)cc1` has an MIC of 8 µg/mL.
`CC1(C)S[C@@H]2[C@H](NC(=O)[C@H](N)c3ccccc3)C(=O)N2[C@H]1C(=O)O` gave an MIC of 32 µM (ATCC 43300, resistant; 18 h, 37 °C, LED light 10 min, 1.57 mW).
`CC[C@H]1OC(=O)[C@H](C)[C@@H](O[C@H]2C[C@@](C)(OC)[C@@H](O)[C@H](C)O2)[C@H](C)[C@@H](O[C@@H]2O[C@H](C)C[C@H](N(C)C)[C@H]2O)[C@](C)(O)C[C@@H](C)C(=O)[C@H](C)[C@@H](O)[C@]1(C)O` gave an MIC of 37.5 µM (147 MRSA clinical isolate).
The MIC of `CN(C)[C@@H]1C(O)=C(C(N)=O)C(=O)[C@@]2(O)C(O)=C3C(=O)c4c(O)cnc(F)c4C[C@H]3C[C@@H]12.Cl` is reported as 0.031 µg/mL (broth microdilution CLSI; ATCC 29213).
With `CN[C@H](CC(C)C)C(=O)N[C@H]1C(=O)N[C@@H](CC(N)=O)C(=O)N[C@H]2C(=O)N[C@H]3C(=O)N[C@H](C(=O)N[C@H](C(=O)O)c4cc(O)cc(O)c4-c4cc3ccc4O)[C@H](O)c3ccc(c(Cl)c3)Oc3cc2cc(c3O[C@@H]2O[C@H](CO)[C@@H](O)[C@H](O)[C@H]2O[C@H]2C[C@](C)(N)[C@H](O)[C@H](C)O2)Oc2ccc(cc2Cl)[C@H]1O` the MIC was less than 0.5 µg/mL (broth microdilution; MRSA clinical isolate, Mueller-Hinton broth; 20 h, 37 °C).
With `Oc1c(Br)cc(Br)c2nc3c(F)cccc3nc12` the MIC was 0.3 µM (broth microdilution; 25923).
With `[Cl][Fe]([Cl])[Cl]` the MIC was greater than 1600 µM (24 h, 37 °C).
